Published values gathered from unrelated publications.
Numbers after ± are the reported error.
Organism: HIV-1

Structure (SMILES) | assay | test system | conditions | EC50 [µM]
Cc1cc(C#N)cc(C)c1Oc1cc(Nc2ccc(C#N)cc2)c(N)cc1[N+](=O)[O-] | viral replication | MT-2, drug-resistant | – | 0.005 to 0.604
Cc1ccc(S(=O)(=O)N2C(=O)CSC2c2cccc(Br)c2)cc1 (stereo not drawn) | viral cytopathicity, MTT | MT-4, IIIB | – | > 125
COc1ccc(-n2c([C@H](Cc3cc(F)cc(F)c3)NC(=O)CN3CCN(S(=O)(=O)c4ccc(N)cc4)CC3=O)nc3cc(Cl)ccc3c2=O)cc1 | viral replication, MTT | MT-4, IIIB | – | 0.14 ± 0.03
COC(=O)[C@H](C)NP(=O)(OCCOCn1cnc2c(=O)[nH]c(N)nc21)Oc1cccc2ccccc12 (stereo partly drawn) | viral replication | – | – | 0.1 to 0.6
CCOC(=O)[C@H](C)NP1(=O)OCC(OCn2cnc3c(=O)[nH]c(N)nc32)CO1 (stereo partly drawn) | viral replication | – | 288 h | 9
Nc1ccc(S(=O)(=O)N2CCN(CC(=O)N[C@@H](Cc3ccccc3)c3nc4ccccc4c(=O)n3-c3ccc(S(=O)(=O)N4CCS(=O)(=O)CC4)cc3)C(=O)C2)cc1 | viral replication, MTT | MT-4, IIIB | – | 1.98 ± 0.96
O=C(CN1c2c(-c3ccccc3)n[nH]c2-c2ccccc2S1(=O)=O)NN=Cc1cccs1 | viral replication | PBMC | – | 70.2
COc1ccc(-n2c([C@H](Cc3cc(F)cc(F)c3)NC(=O)CN3CCN(S(=O)(=O)c4ccc([N+](=O)[O-])cc4)CC3=O)nc3cc(Br)ccc3c2=O)cc1 | viral replication, MTT | MT-4, IIIB | – | 0.99 ± 0.25
CC(=NNC(=O)CN1c2c(-c3ccccc3)n[nH]c2-c2ccccc2S1(=O)=O)c1ccc(Cl)s1 | viral replication | PBMC | – | > 100
Cc1ccc(S(=O)(=O)N2C(=O)CSC2c2ccccc2Cl)cc1 (stereo not drawn) | viral cytopathicity, MTT | MT-4, IIIB | – | > 125
CC(=NNC(=O)CN1c2c(-c3ccccc3)n[nH]c2-c2ccccc2S1(=O)=O)c1ccc(C)s1 | viral replication | PBMC | – | 12.3
O=C1Nc2ccc(Cl)cc2[C@@](C#CC2CC2)(C(F)(F)F)O1 | viral replication | MT4, IIIB wild type | – | 0.00231 ± 0.00023
Cc1cc(/C=C/C#N)cc(C)c1Oc1ccc(N)c(Nc2ccc(C#N)cc2)n1 | viral replication | TZM-bl, NL4-3 | – | ≤ 0.0007
CC[C@H](C)CN(C[C@@H](O)[C@H](Cc1ccccc1)NC(=O)[C@@H](NC(C)=O)[C@@H](C)CC)S(=O)(=O)c1ccc2ncsc2c1 | viral replication, Monogram susceptibility | clade A patient isolate | – | 0.0023
CC(=NNC(=O)CN1c2c(-c3ccccc3)n[nH]c2-c2ccccc2S1(=O)=O)c1cc2ccccc2o1 | viral replication | PBMC | – | 79
Cc1cn([C@H]2C[C@H](N=[N+]=[N-])[C@@H](CO)O2)c(=O)[nH]c1=O | viral replication | PBMC, LAI | – | 0.0018
N=C(N)NCCC[C@H](NC(=O)[C@H](CCCNC(=N)N)NC(=O)[C@H](CCCNC(=N)N)NC(=O)[C@H](CCCNC(=N)N)NC(=O)[C@H](CCCNC(=N)N)NC(=O)[C@H](CCCNC(=N)N)NC(=O)[C@H](CCCNC(=N)N)NC(=O)CCCCCCCCCCCCC(=O)OC[C@@H]1O[C@H](n2cc(F)c(N)nc2=O)CS1)C(=O)O | viral replication, MAGI single-round infection | BaL, R5-tropic | cell-free virus | 1.5
CC(=NNC(=O)CN1c2c(-c3ccccc3)n[nH]c2-c2ccccc2S1(=O)=O)c1cc(C)sc1C | viral replication | PBMC | – | > 100
Cc1ccc(S(=O)(=O)N2C(=O)CSC2c2ccccc2)cc1 (stereo not drawn) | viral cytopathicity, MTT | MT-4, IIIB | – | > 125
CCCC(=O)OCSc1ccccc1C(=O)NCCC(N)=O | viral replication | human monocytes/macrophages, subtype B ADA, CCR5-tropic | – | 20.1
CC[C@H](C)[C@@H]1NC(=O)[C@@H]2CSSC[C@@H]3NC(=O)[C@H](C(C)C)NC(=O)[C@H](CCCCN)NC(=O)[C@H](CCCNC(N)=O)NC(=O)[C@H](Cc4ccc(O)cc4)NC(=O)[C@@H]4CSSC[C@H](NC(=O)[C@H](CCCNC(N)=O)NC(=O)[C@H](CCCNC(=N)N)NC(=O)[C@H](Cc5ccc(O)cc5)NC(=O)[C@H](CO)NC(=O)CNC(=O)[C@@H]5CSSC[C@H](NC(=O)[C@H](CC(=O)O)NC(=O)[C@H](CO)NC(=O)[C@H](CC(=O)O)NC(=O)[C@H](CCCNC(=N)N)NC(=O)[C@H](CCCNC(=N)N)NC(=O)[C@H](CSSC[C@H](NC1=O)C(=O)N[C@@H](CCCNC(=N)N)C(=O)NCC(=O)N[C@@H](CC(N)=O)C(=O)NCC(=O)N[C@@H](Cc1ccc(O)cc1)C(=O)N5)NC(=O)[C@H](CCCNC(=N)N)NC(=O)[C@H](CCC(N)=O)NC(=O)[C@H](CC(C)C)NC(=O)[C@H]([C@@H](C)CC)NC(=O)[C@H](CCCCN)NC(=O)[C@@H]1CCCN1C3=O)C(=O)N1CCC[C@H]1C(=O)NCC(=O)N[C@@H](C)C(=O)N2)C(=O)N[C@@H](CCCNC(=N)N)C(=O)NCC(=O)N1CCC[C@@H]1C(=O)N[C@@H](CCCNC(=N)N)C(=O)N[C@@H](CCCNC(=N)N)C(=O)N[C@@H](Cc1ccc2ccccc2c1)C(=O)N4 | viral replication | CXCR4-tropic | – | 0.002 ± 0.0003
N#Cc1ccc(Oc2cc(Cl)ccc2Cl)c(COCc2ccncc2)c1 | viral replication | MT-2, IIIB wild type | – | 1.8
Cc1ccc(S(=O)(=O)N2C(=O)CSC2c2ccc([N+](=O)[O-])cc2)cc1 (stereo not drawn) | viral cytopathicity, MTT | MT-4, IIIB | – | > 125

Structure (SMILES) | assay | test system | conditions | EC50 [µM]
Cc1ccc(N2C(=O)CCC2(C#N)c2ccc(OCc3ccccc3)cc2)cc1 (stereo not drawn) | viral replication | human PBMC, LAI | – | 16.7
O=C(O)c1cccc(-c2ccc(/C=C3\SC(=S)N(CCc4ccccc4)C3=O)o2)c1 | viral replication | MT-2 | – | < 0.1
COc1ccc(-n2c([C@H](Cc3ccccc3)NC(=O)CN3CCN(S(=O)(=O)c4ccc(N)cc4)CC3=O)nc3cc(F)ccc3c2=O)cc1 | viral replication, MTT | MT-4, IIIB | – | 0.82 ± 0.15
CC(=NNC(=O)CN1c2c(-c3ccccc3)n[nH]c2-c2ccccc2S1(=O)=O)c1nccs1 | viral replication | PBMC | – | > 100
Cc1cc(C)cc(C(=O)c2cc(Cl)ccc2OCCn2c3c(c(=O)[nH]c2=O)CCC3)c1 | cell-to-cell transmission | MOLT-4/R5 and GHOST(3)R5, CCR5-tropic | CD4-dependent | 0.04
CC(=NNC(=O)CN1c2c(-c3ccccc3)n[nH]c2-c2ccccc2S1(=O)=O)c1ccncc1 | viral replication | PBMC | – | 80.5
NC(=O)CCNC(=O)c1ccccc1S | viral replication | human monocytes/macrophages, subtype B 91US005, CCR5-tropic | – | 2.5
O=C(CN1CCN(S(=O)(=O)c2ccc([N+](=O)[O-])cc2)CC1=O)N[C@@H](Cc1ccccc1)c1nc2ccccc2c(=O)n1-c1ccc(S(=O)(=O)N2CCS(=O)(=O)CC2)cc1 | viral replication, MTT | MT-4, IIIB | – | 12.6 ± 18.7
Cc1ccc(S(=O)(=O)N2C(=O)CSC2c2ccc(O)cc2)cc1 (stereo not drawn) | viral cytopathicity, MTT | MT-4, IIIB | – | > 125
O=c1cc(-c2ccc(O)c(O)c2)oc2cc(O[C@@H]3O[C@H](CO)[C@@H](O)[C@H](O)[C@H]3O)cc(O)c12 | viral replication, item: p24 Gag | PBMCs from 3 donors, NL4.3 | day 6 | 2.6 ± 0.8
Cc1ccc(N2C(=O)CCC2(CN)c2ccccc2)cc1 (stereo not drawn) | viral replication | human PBMC, LAI | – | 32.6
Cc1ccc(S(=O)(=O)N2C(=O)CSC2c2ccccc2F)cc1 (stereo not drawn) | viral cytopathicity, MTT | MT-4, IIIB | – | 111
N=C(N)NCCC[C@H](NC(=O)[C@H](CCCNC(=N)N)NC(=O)[C@H](CCCNC(=N)N)NC(=O)[C@H](CCCNC(=N)N)NC(=O)[C@H](CCCNC(=N)N)NC(=O)[C@H](CCCNC(=N)N)NC(=O)[C@H](CCCNC(=N)N)NC(=O)CCCCCCCCCCCCC(=O)OC[C@@H]1O[C@H](n2ccc(N)nc2=O)CS1)C(=O)O | viral replication, MAGI single-round infection | BaL, R5-tropic | cell-free virus | 16.6
Cc1ccc(N2C(=O)CCC2(C#N)c2ccc(OC(C)C)cc2)cc1 (stereo not drawn) | viral replication | human PBMC, LAI | – | 37.3
N#Cc1ccc(Oc2cc(Cl)ccc2Cl)c(OCCc2ccncc2)c1 | viral replication | MT-2, IIIB wild type | – | 0.76
Nc1c(C(=O)NCc2ccc(F)cc2F)c(=O)n(O)c2ncc(CCCCCCOC(=O)c3ccccc3)cc12 | viral infectivity, single-round infection | HOS, integrase wild type | – | 0.0048 ± 0.0016
COc1ccc(-n2c([C@H](Cc3cc(F)cc(F)c3)NC(=O)CN3CCN(S(=O)(=O)c4ccc(N)cc4)CC3=O)nc3cc(F)ccc3c2=O)cc1 | viral replication, MTT | MT-4, IIIB | – | 0.31 ± 0.14
N#C/C=C/c1cc(Cl)cc(Oc2ccc(Cl)cc2OCCn2ccc(=O)[nH]c2=O)c1 | viral replication | T cells, IIIB, wild type | – | 2.4e-05
COc1ccc(-n2c([C@H](Cc3ccccc3)NC(=O)CN3CCN(S(=O)(=O)c4ccc([N+](=O)[O-])cc4)CC3=O)nc3cc(S(C)(=O)=O)ccc3c2=O)cc1 | viral replication, MTT | MT-4, IIIB | – | 2.77 ± 0.5
Nc1nc2c(ncn2COCCO)c(=O)[nH]1 | giant cell formation | CCRF-CEM | – | > 250
CC(=NNC(=O)CN1c2c(-c3ccccc3)n[nH]c2-c2ccccc2S1(=O)=O)c1ccc(C)o1 | viral replication | PBMC | – | 75.7
Nc1c(C(=O)NCc2ccc(F)cc2F)c(=O)n(O)c2ncc(CCC(=O)NCCO)cc12 | viral infectivity, single-round infection | HOS, integrase wild type | – | ≥ 0.2
